Earlier results as cited in several papers.
Protocols differ between the studies behind these lines. Values joined by “and” are separate records of one study, mostly repeats; a detail may differ. ± gives the spread as reported.
Organism: HIV-1

With COC(=O)N[C@H](C(=O)N[C@@H](Cc1ccccc1)[C@@H](O)CN(Cc1ccc(-c2ccccn2)cc1)NC(=O)[C@@H](NC(=O)OC)C(C)(C)C)C(C)(C)C the IC50 was 0.011 µg/mL and ~0.011 µg/mL (viral replication; wild type, human serum).
The EC50 of Cc1cc(/C=C/C#N)cc(C)c1Nc1ccnc(Nc2ccc(C#N)cc2)n1 is reported as 1 ± 0.27 nM (viral replication, MTT; MT-4, IIIB wild type).
With CN[C@@H]1[C@H](O[C@@H]2OC[C@@H](O)[C@H](O)[C@H]2O)[C@@H](O)[C@H](O[C@H]2c3cc(C)c(C(=O)N[C@H](C)C(=O)O)c(O)c3-c3c(cc4c(c3O)C(=O)c3cc(OC)cc(O)c3C4=O)[C@@H]2O)O[C@@H]1C the EC50 was at least 4200 nM (viral cytopathicity; MT4 and CEM).
For Cc1cc(/C=C/C#N)cc(C)c1Nc1ccnc(Nc2ccc(C#N)cc2)n1, the EC50 was 0.51 nM (viral replication; wild type).
Cc1cc(/C=C/C#N)cc(C)c1Nc1ccnc(Nc2ccc(C#N)cc2)n1 has an EC50 of 0.2 ± 0.1 nM (viral replication, single-round infection; wild type).
Cc1cc(C#N)cc(C)c1Oc1nc(Nc2ccc(C#N)cc2)nc(N)c1Br gave an EC50 of 1.4 nM (viral replication; wild type).
The EC50 of Nc1ccn([C@@H]2CS[C@H](CO)O2)c(=O)n1 is reported as 16.6 nM (X4 LAI.04, human tissue ex vivo).
Cc1cc(/C=C/C#N)cc(C)c1Oc1cc(Nc2ccc(C#N)cc2)c(N)cc1[N+](=O)[O-] has an EC50 of 0.38 ± 0.07 nM (viral replication; TZM-bl, NL4-3 wild type).
C=C(C)[C@@H]1CC[C@]2(NCCN3CCS(=O)(=O)CC3)CC[C@]3(C)[C@H](CC[C@@H]4[C@@]5(C)CC=C(c6ccc(C(=O)O)cc6)C(C)(C)[C@@H]5CC[C@]43C)[C@@H]12 — result for antiviral activity: “active” (viral replication; subtypes B, C, AE incl. Gag polymorphisms; concentration not given).
With Cc1cc(/C=C/C#N)cc(C)c1Nc1ccnc(Nc2ccc(C#N)cc2)n1 the EC50 was 0.51 nM (viral replication; wild type).
CN(C)c1ccc(Nc2c3ccc(NC(=O)CCN4CCCC4)cc3nc3cc(NC(=O)CCN4CCCC4)ccc23)cc1 gave an IC50 of 3400 ± 140 nM (viral replication; TZM-bl, NL4-3).
With Cn1c(Cn2ccc(C(F)(F)F)c(Oc3cc(Cl)cc(C#N)c3)c2=O)n[nH]c1=O the EC50 was 8.46 ± 3.64 nM (viral replication, MTT; MT-4, IIIB wild type).
The EC50 of Cn1c(Cn2ccc(C(F)(F)F)c(Oc3cc(Cl)cc(C#N)c3)c2=O)n[nH]c1=O is reported as 0.7 ± 0.1 nM (viral replication, single-round infection; wild type).
With Cc1cc(C#N)cc(C)c1Oc1nc(Nc2ccc(C#N)cc2)nc(N)c1Br the EC50 was 1.5 nM (viral replication; wild type).

Excerpt of the above:
With Cn1c(Cn2ccc(C(F)(F)F)c(Oc3cc(Cl)cc(C#N)c3)c2=O)n[nH]c1=O the EC50 was 8.46 ± 3.64 nM (viral replication, MTT; MT-4, IIIB wild type).
